# Measured values of several laboratories.
# Values joined by “and” are separate records of one study, mostly repeats; a detail may differ. ± gives the spread as reported.
SMILES,organism,test,test system,setting,EC50
CCOC(=O)C1(Cc2ccccc2)CN(c2ccccc2)Cc2nnn(Cc3ccccc3)c21 (stereo not drawn),human adenovirus 2,viral replication,HEL,,> 100 µM
Nc1nc(CC(O)c2ccccc2C(F)(F)F)c(Br)c(=O)[nH]1 (stereo not drawn),reovirus type 1,virus-induced cytopathicity,Vero,,> 100 µM
COc1ccccc1CCn1nnc2c1CCN(c1ccccc1)C2,human adenovirus 2,viral replication,HEL,,> 100 µM
Nc1nc(CCc2ccccc2)c(Br)c(=O)[nH]1,reovirus type 1,virus-induced cytopathicity,Vero,,> 100 µM
CC(C)CC(=O)OC[C@H]1O[C@@](C#N)(c2ccc3c(N)ncnn23)[C@H](O)[C@@H]1O,human respiratory syncytial virus,viral replication,HEp-2,without verapamil,0.301 µM
Nc1ncnc2c1ncn2C[C@H](O)CO,reovirus type 1,virus-induced cytopathicity,Vero,,> 250 µM
COc1cc(NC(C(=O)N2CCc3ccc(OC(F)(F)F)cc32)c2ccc(Cl)cc2)cc(OCCCC(=O)O)c1 (stereo not drawn),dengue virus type 2,"viral replication, Renilla luciferase reporter virus",Huh-7.5.1,48 h,0.0002 µM
CCC(C)n1ncn(-c2ccc(N3CCN(c4ccc(OCC5COC(Cn6cncn6)(c6ccc(Cl)cc6Cl)O5)cc4)CC3)cc2)c1=O (stereo not drawn),HRV14,viral replication,,72 h,0.64 ± 0.08 µM
CCOC(=O)C1(Cc2ccc(F)cc2)CN(c2ccccc2)Cc2nnn(Cc3cccc(F)c3)c21 (stereo not drawn),human adenovirus 2,viral replication,HEL,,> 100 µM
COc1ccc(/C=C/c2nc(N)[nH]c(=O)c2Br)cc1OC,reovirus type 1,virus-induced cytopathicity,Vero,,> 100 µM
Nc1ccn([C@H]2CC[C@@H](CO)O2)c(=O)n1,human adenovirus 2,viral cytopathic effect,HEL,,7.3 µM
COc1cc(N[C@H](C(=O)c2c[nH]c3ccc(OC(F)(F)F)cc23)c2ccc(Cl)cc2OC)cc(S(C)(=O)=O)c1,dengue virus type 2,"viral replication, Renilla luciferase reporter virus",Huh-7.5.1,48 h,2e-05 µM
COc1ccc(CCn2nnc3c2CCN(c2ccccc2)C3)cc1,human adenovirus 2,viral replication,HEL,,> 100 µM
NC(=O)c1ncn([C@@H]2O[C@H](CO)[C@@H](O)[C@H]2O)n1,reovirus type 1,virus-induced cytopathicity,Vero,,> 250 µM
CCOC(=O)C1(Cc2ccc(F)cc2)CN(c2ccccc2)Cc2nnn(Cc3ccc(Cl)c(Cl)c3)c21 (stereo not drawn),human adenovirus 2,viral replication,HEL,,> 100 µM
Cc1cc(C)c(/C=C/c2nc(N)[nH]c(=O)c2Br)c(C)c1,reovirus type 1,virus-induced cytopathicity,Vero,,> 20 µM
C[C@H]1CN(c2n[nH]c3nc(N[C@H]4CC[C@H](NS(=O)(=O)CCC(F)(F)F)CC4)ncc23)CCO1,Leishmania donovani,cell growth,"promastigotes, LdBOB",life-cycle stage comparison,0.0058 ± 0.0003 µM
COCC(=O)N1CCC[C@H](C(=O)NCc2nc(-c3ccc(C#N)cc3)cs2)C1,Plasmodium falciparum,,Dd2,added: WLW-vs fixed ratio 1.00:0.00,0.013 µM and 0.016 µM
COc1ccnc(C(=O)N[C@H]2COC(=O)[C@H](Cc3ccccc3)[C@@H](OC(=O)C(C)C)[C@H](C)OC2=O)c1OCOC(=O)C(C)C,Daphnia magna,,,acute risk assessment,0.93 ng/mL
COc1ccccc1CCn1nnc2c1CCN(c1ccc(C(F)(F)F)cc1)C2,human adenovirus 2,viral replication,HEL,,> 100 µM
COC(=O)N[C@H](C(=O)N1CCC[C@H]1c1ncc(-c2ccc(-c3ccc(-c4cnc([C@@H]5CCCN5C(=O)[C@@H](NC(=O)OC)C(C)C)[nH]4)cc3)cc2)[nH]1)C(C)C,canine parainfluenza virus,viral replication,Vero,,26 µM
O=C(N1CCC2(CC1)C[C@@H](CN1CCCCS1(=O)=O)CCO2)C1(c2ccccc2)CCCC1,West Nile virus,viral replication,Vero,,> 10 µM
CCOC(=O)C1(Cc2ccccc2)CN(c2ccccc2)Cc2nnn(Cc3ccc(Cl)cc3)c21 (stereo not drawn),human adenovirus 2,viral replication,HEL,,> 100 µM
Cc1cn([C@H]2C[C@H](F)[C@@H](CO)O2)c(=O)[nH]c1=O,human adenovirus 2,viral cytopathic effect,HEL,,3.4 µM
